# Experimental data of several laboratories.
# ± gives the spread as reported.
# SEC14: SEC14 (Saccharomyces cerevisiae, UniProt P24280)
# Sequence of UniProt P24280 (whole entry, looked up): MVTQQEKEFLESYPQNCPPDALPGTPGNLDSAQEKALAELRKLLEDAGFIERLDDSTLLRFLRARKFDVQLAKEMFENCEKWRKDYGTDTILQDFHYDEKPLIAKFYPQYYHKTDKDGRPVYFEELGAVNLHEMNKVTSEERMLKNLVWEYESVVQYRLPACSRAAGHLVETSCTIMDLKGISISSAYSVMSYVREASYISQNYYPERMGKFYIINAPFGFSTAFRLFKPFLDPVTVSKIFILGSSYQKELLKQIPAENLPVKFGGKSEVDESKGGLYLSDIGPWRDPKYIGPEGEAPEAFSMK
# Sequence of UniProt Q86WJ1 (whole entry, looked up): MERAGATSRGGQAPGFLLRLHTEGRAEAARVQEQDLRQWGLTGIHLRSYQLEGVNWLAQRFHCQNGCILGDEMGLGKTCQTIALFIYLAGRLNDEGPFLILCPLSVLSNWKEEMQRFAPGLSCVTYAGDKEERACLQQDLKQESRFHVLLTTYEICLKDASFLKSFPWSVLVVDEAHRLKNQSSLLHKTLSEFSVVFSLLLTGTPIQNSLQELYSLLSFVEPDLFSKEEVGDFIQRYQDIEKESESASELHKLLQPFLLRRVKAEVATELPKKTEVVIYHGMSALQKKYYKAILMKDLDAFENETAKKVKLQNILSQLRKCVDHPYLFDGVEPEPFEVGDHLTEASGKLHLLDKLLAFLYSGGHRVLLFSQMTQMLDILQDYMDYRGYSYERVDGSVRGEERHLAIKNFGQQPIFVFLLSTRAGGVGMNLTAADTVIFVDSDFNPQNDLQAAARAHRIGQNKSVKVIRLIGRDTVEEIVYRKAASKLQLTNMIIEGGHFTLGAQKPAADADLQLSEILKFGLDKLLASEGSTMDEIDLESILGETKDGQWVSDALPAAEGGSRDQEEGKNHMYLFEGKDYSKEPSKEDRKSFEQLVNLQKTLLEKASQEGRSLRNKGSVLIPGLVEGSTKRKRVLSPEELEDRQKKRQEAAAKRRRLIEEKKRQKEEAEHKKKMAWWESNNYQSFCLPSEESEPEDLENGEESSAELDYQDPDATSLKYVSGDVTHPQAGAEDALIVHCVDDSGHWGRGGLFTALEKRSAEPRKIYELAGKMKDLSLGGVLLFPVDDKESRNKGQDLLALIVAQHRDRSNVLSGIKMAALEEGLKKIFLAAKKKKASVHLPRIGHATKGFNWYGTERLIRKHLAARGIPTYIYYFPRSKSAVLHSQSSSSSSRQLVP
# Sequence of UniProt Q04771 (whole entry, looked up): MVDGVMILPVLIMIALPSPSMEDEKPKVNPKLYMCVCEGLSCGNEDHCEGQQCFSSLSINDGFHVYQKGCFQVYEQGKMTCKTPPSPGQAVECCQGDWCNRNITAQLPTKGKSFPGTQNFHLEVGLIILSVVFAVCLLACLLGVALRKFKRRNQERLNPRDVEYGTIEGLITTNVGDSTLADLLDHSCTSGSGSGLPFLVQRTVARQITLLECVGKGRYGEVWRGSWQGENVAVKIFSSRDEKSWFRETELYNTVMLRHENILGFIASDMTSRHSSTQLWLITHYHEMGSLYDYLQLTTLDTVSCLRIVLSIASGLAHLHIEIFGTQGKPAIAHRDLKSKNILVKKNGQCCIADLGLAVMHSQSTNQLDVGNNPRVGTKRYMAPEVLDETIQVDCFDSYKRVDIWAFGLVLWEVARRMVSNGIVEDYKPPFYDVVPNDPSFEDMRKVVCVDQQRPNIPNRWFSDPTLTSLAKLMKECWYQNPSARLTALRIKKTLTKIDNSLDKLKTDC
# Sequence of UniProt P28907 (whole entry, looked up): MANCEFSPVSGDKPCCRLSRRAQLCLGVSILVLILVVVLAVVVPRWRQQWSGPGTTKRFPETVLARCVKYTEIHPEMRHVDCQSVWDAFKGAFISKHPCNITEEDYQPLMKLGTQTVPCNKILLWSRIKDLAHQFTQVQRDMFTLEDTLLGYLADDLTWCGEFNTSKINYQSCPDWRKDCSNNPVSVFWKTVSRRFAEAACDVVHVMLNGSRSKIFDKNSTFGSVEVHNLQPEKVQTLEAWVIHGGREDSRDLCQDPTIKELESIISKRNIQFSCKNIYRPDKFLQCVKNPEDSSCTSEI
# Sequence of UniProt P30969 (whole entry, looked up): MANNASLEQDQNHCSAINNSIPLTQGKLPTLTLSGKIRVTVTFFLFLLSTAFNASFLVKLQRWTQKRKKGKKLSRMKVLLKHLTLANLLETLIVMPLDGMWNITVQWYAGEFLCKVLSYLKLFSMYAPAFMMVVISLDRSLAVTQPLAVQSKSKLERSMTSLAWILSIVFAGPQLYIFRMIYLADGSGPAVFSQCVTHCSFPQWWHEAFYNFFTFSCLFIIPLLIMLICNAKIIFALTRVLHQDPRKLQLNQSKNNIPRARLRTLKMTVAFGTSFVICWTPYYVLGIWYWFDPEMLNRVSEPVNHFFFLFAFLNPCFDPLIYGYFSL
# Sequence of UniProt Q99436 (whole entry, looked up): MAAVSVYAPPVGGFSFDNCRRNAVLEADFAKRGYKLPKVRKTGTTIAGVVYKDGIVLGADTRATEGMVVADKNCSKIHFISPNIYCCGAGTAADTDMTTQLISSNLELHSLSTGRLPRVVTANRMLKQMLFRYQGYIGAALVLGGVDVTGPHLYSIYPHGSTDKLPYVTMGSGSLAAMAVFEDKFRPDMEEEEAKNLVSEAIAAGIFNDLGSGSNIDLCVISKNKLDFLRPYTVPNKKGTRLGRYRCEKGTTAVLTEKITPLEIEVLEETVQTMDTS
# Sequence of UniProt P39051 (whole entry, looked up): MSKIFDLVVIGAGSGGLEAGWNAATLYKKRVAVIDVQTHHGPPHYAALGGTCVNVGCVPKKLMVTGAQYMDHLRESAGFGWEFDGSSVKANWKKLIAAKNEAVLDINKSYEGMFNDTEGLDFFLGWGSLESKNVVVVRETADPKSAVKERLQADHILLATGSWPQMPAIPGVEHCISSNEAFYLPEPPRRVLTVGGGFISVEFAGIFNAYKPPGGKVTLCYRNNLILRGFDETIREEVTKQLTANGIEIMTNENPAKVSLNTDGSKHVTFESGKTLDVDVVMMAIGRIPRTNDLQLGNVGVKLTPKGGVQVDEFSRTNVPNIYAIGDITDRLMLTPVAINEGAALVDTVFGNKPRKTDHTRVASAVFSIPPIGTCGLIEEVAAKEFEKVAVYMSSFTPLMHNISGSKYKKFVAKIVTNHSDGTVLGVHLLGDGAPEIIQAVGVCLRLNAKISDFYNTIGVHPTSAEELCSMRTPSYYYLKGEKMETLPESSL
# Sequence of UniProt P32745 (whole entry, looked up): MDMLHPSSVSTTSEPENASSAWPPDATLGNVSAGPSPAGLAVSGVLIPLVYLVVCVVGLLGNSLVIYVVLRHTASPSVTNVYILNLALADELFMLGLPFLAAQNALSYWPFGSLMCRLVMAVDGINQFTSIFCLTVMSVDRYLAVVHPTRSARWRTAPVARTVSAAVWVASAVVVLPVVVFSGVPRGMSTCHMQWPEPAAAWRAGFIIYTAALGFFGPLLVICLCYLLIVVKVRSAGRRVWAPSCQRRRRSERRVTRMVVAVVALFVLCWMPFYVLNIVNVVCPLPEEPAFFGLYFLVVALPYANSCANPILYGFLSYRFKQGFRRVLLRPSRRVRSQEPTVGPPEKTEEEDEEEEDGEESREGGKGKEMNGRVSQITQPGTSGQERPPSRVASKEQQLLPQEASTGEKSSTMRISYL
# Sequence of UniProt P51812 (whole entry, unmodified, looked up): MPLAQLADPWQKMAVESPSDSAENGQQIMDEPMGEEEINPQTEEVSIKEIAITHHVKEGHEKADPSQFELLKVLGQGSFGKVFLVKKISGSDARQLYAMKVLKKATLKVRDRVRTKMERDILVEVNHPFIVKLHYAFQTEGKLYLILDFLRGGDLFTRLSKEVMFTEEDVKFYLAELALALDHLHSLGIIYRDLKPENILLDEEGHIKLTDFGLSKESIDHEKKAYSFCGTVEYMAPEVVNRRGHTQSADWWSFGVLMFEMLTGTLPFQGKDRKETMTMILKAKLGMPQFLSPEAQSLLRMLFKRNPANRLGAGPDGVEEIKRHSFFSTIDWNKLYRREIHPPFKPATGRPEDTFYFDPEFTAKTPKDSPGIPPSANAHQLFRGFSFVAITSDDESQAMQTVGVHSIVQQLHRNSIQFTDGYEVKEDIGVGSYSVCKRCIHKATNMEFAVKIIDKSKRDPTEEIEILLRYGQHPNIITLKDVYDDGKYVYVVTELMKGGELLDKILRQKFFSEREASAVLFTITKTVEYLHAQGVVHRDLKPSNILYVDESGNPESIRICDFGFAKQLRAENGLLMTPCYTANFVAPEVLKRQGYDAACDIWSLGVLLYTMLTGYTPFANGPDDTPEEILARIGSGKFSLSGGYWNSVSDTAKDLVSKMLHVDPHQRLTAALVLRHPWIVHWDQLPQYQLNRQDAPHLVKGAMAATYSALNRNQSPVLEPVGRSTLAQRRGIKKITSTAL
# Sequence of UniProt P52699 (whole entry, looked up): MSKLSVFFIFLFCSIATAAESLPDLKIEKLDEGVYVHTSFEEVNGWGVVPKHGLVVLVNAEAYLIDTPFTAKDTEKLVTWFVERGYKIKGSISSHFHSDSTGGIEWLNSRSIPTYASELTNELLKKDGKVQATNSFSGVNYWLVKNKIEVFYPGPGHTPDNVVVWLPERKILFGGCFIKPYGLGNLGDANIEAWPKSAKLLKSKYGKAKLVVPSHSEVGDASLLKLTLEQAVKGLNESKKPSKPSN
# Sequence of UniProt Q96KS0 (whole entry, looked up): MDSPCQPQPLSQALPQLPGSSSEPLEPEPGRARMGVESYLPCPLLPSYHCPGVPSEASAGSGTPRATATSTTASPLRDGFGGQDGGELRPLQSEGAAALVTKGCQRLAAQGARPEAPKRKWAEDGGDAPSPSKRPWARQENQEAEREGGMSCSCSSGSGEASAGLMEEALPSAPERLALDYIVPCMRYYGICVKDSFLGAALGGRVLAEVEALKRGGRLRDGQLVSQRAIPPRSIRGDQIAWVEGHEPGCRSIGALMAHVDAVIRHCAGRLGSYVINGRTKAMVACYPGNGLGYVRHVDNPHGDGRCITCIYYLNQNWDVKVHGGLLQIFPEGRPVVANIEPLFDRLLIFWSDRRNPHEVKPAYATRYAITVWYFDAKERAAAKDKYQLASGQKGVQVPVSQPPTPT
SMILES,target,test,test system,setting,IC50 [µM]
N#C/C(=C\c1cccc(-c2cn[nH]c2)c1)C(N)=O,"Ribosomal protein S6 kinase alpha-3, C-terminal kinase domain (RPS6KA3, Homo sapiens, UniProt P51812, T493M)","kinase activity, inhibitor",,together with: 0.1 mM ATP,0.37
CNC(=O)C1CCN(c2ccccc2NC(=O)c2ccc(-c3cccc(O)c3)c(C)c2)CC1,"EPHA4 (Homo sapiens, UniProt P54764)","target engagement in cells, BRET",,,11.9
CC(C)NCc1ccc(C[C@@H]2NC(=O)[C@@H](Cc3c[nH]c4ccccc34)NC(=O)[C@@H]3CCC(=O)NCCCCCC[C@H](NC(=O)[C@H](Cc4ccc(O)c(I)c4)NC(=O)[C@H]([C@@H](C)O)NC2=O)C(=O)N[C@@H](CO)C(=O)N[C@H](C(=O)O)CSSC[C@H](N)C(=O)N[C@@H](CCCCN)C(=O)N[C@@H](Cc2ccccc2)C(=O)N3)cc1,"SSTR3 (Homo sapiens, UniProt P32745)","ligand displacement, radioligand",,cell membranes,> 1
CC(C)C[C@H](NC(=O)[C@H](Cc1c[nH]c2ccccc12)NC(=O)[C@H](C)NC(=O)CNC(=O)[C@@H](N)CSSC[C@H](N)C(=O)NCC(=O)N[C@@H](C)C(=O)N[C@@H](Cc1c[nH]c2ccccc12)C(=O)N[C@@H](CC(C)C)C(=O)N[C@@H](C)C(=O)N[C@@H](Cc1ccc(O)cc1)C(=O)N1CCC[C@H]1C(=O)N[C@@H](CC(=O)O)C(=O)N[C@@H](CO)C(=O)N[C@H](C(=O)N1CCC[C@H]1C(=O)N[C@@H](Cc1ccc(O)cc1)C(=O)N[C@@H](CCCNC(=N)N)C(=O)N1CCC[C@H]1C(=O)N[C@@H](CCCCN)C(N)=O)C(C)C)C(=O)N[C@@H](C)C(=O)N[C@@H](Cc1ccc(O)cc1)C(=O)N1CCC[C@H]1C(=O)N[C@@H](CC(=O)O)C(=O)N[C@@H](CO)C(=O)N[C@H](C(=O)N1CCC[C@H]1C(=O)N[C@@H](Cc1ccc(O)cc1)C(=O)N[C@@H](CCCNC(=N)N)C(=O)N1CCC[C@H]1C(=O)N[C@@H](CCCCN)C(N)=O)C(C)C,"Ephrin type-A receptor 2, ectodomain with ephrin-A5 (Mus musculus, UniProt Q03145)","ephrin-A5 binding, inhibitor, ELISA",,together with: ephrin-A5-AP 0.05 nM,0.0004
Cc1ccc(N2C(=O)c3ccccc3NC23C(=O)N(C)c2ccc(Br)cc23)cc1 (centres unmarked),"LNPEP (Homo sapiens, UniProt Q9UIQ6)","enzyme activity, inhibitor",HEK293 membranes overexpressing IRAP,together with: L-Leu-pNA,15.8
Cc1ccc(-c2cc(C(=O)NCc3ccc(S(N)(=O)=O)cc3)c3cc(Br)ccc3n2)o1,"TPR (Trypanosoma brucei brucei, UniProt P39051)","inhibitor, DTNB-coupled colourimetric",,together with: substrate at Km,8.4
COc1cc(OC)c(C(=O)/C=C/c2ccc(N(C)CCO)cc2)c(OC)c1,"Seed linoleate 13S-lipoxygenase-1 (Glycine max, UniProt P08170)","enzyme activity, inhibitor, absorbance",,,52.5
CCc1c(O)ccc2nc(-c3cc(-c4cnn(C5CCNCC5)c4)cnc3N)oc12,"JAK2 (Homo sapiens, UniProt O60674)","enzyme activity, inhibitor, TR-FRET",,,0.28
CC1=CC(C)(C)N=C(Nc2nc(C)c3cc(C)cc(C)c3n2)N1,"CD38 (Homo sapiens, UniProt P28907)","hydrolase activity, fluorometric",,together with: ε-NAD+ substrate,4 ± 0.48
N#Cc1c(Nc2c(Cl)ccc3ncccc23)s[nH]c1=O,"SARM1 (Homo sapiens, UniProt Q6SZW1, C635A)","enzyme activity, inhibitor",,,17
CC(C)(C)c1cc(=O)n2ncc(-c3ccc(F)cc3)c2[nH]1,"CHD1L (Homo sapiens, UniProt Q86WJ1)","ATPase activity, inhibitor",,"1 h, 37 °C, together with: ATP 10 µM",4.57
Cc1cnc(C(=O)N[C@@H](Cc2cn(C)cn2)C(=O)N2CCC[C@H]2C(N)=O)cn1,"Thyrotropin-releasing hormone receptor (Mus musculus, UniProt P21761)","ligand displacement, radioligand",,,> 50
CC[C@H](C)[C@H](NC(=O)[C@H](Cc1ccc(O)cc1)NC(=O)[C@@H](NC(=O)[C@H](CCCN=C(N)N)NC(=O)CNC)C(C)C)C(=O)N[C@@H](Cc1c[nH]cn1)C(=O)N1CCC[C@H]1C(=O)N[C@H](C(=O)O)[C@@H](C)O,"Type-2 angiotensin II receptor (Rattus norvegicus, UniProt P35351)","ligand displacement, radioligand",,"pH 7.4, cell membranes",0.0003
CN(C)c1ccc2c3c(cccc13)C(=O)N(CCS)C2=O,"Metallo-beta-lactamase type 2 (Serratia marcescens, UniProt P52699)","enzyme activity, inhibitor",,"pH 7.0, together with: chromacef 25 µM",0.23 ± 0.02
CC(=O)NCCN(CC(=O)NCCN(CC(=O)NCCN(CC(=O)NCCC(N)=O)C(=O)C[C@@H](N)CCCNC(=N)N)C(=O)C[C@@H](N)CCCCN)C(=O)C[C@@H](N)Cc1ccccc1,HIV-1 TAR RNA,"Tat/TAR complex displacement, FRET",,"room temperature, together with: 10 nM Tat/TAR complex",1.5 ± 0.6
NC(=O)CNC(=O)[C@@H]1CCCN1C(=O)[C@H](Cc1ccc(O)cc1)NC(=O)[C@H](Cc1c[nH]c2ccccc12)NC(=O)[C@@H](Cc1c[nH]c2ccccc12)NC(=O)[C@H](Cc1c[nH]cn1)NC(=O)[C@H](CO)NC(=O)[C@H](Cc1c[nH]c2ccccc12)NC(=O)[C@H](Cc1c[nH]cn1)NC(=O)[C@@H]1CCC(=O)N1,"Gonadotropin-releasing hormone receptor (Rattus norvegicus, UniProt P30969)","ligand displacement in cells, radioligand",,,0.0034
C=C(NC(=O)C(=C)NC(=O)c1csc(C2=NC3c4csc(n4)C4NC(=O)c5csc(n5)C(C(C)(O)C(C)O)NC(=O)C5CSC(=N5)C(=CC)NC(=O)C(C(C)O)NC(=O)c5csc(n5)C3(CC2)NC(=O)C(=CC)NC(=O)C(=C)NC(=O)C(C)NC(=O)C(C(C)CC)NC2C=Cc3c(C(C)O)cc(nc3C2O)C(=O)OC4C)n1)C(N)=O (centres unmarked),"Proteasome subunit beta type-7, in 20S proteasome (PSMB7, Homo sapiens, UniProt Q99436)","trypsin-like activity, inhibitor",purified 20S proteasome,"15 min preincubation, 37 °C, together with: Boc-Leu-Arg-Arg-AMC substrate",0.29 ± 0.03
Cc1ccncc1-c1c[nH]n(-c2ccccn2)c1=O,"EGLN2 (Homo sapiens, UniProt Q96KS0)","enzyme activity, inhibitor, europium VBC binding",,"10 µM FeSO4, 2 mM ascorbate, together with: 20 µM 2-oxoglutarate",0.53
CN1CCN(c2ccc(/C=C3\C(=O)Nc4ccc(-c5ccc(-c6ccc(O)cc6)cc5)cc43)cc2)CC1,"FGFR4 (Homo sapiens, UniProt P22455)","enzyme activity, inhibitor",,,19.8
O=C(OCc1cccc(O)c1O)c1ccc(O)c(CO)c1,"Neutrophil cytosol factor 1, tandem SH3 domain (NCF1, Homo sapiens, UniProt P14598)","binding to p22phox peptide, inhibitor, fluorescence polarization",,together with: FITC-p22phox peptide 5 nM,0.149
Nc1nc2ccc(Oc3ccc4nc(N)sc4c3)cc2s1,"Sensor histidine protein kinase/phosphatase WalK (walK, Streptococcus pneumoniae, UniProt Q8DPL8)","enzyme activity, ATP-competitive inhibitor",,,75
CC(C)n1ccn2cc(C(=O)NCc3ccc(F)cc3F)c(=O)c(O)c2c1=O,"gag-pol/sso7d, integrase (Human immunodeficiency virus type 1 group M subtype B, UniProt P12497+P39476)","integrase strand transfer, inhibitor, concerted integration",HIV-1,,0.109
COc1cc(-c2nc3ccc(C(=O)NCCCN4CCN(c5cccc(C)c5C)CC4)cc3n2C2CCC2)cc(OC)c1OC,"ACVR1 (Homo sapiens, UniProt Q04771)","target engagement in cells, BRET",,,0.79
O=C(c1ccc(I)cc1)N1CCN(c2ccc(F)cc2)CC1,SEC14,"enzyme activity, inhibitor, radiometric",,,0.589
CNC(=O)c1cc(C)ccc1NC(=O)c1ccc(-c2c(C)ccc3[nH]ncc23)c(C)c1,"YES1 (Homo sapiens, UniProt P07947)","target engagement in cells, BRET",,,27.5
"CC1(C)C2CCC3(CC(c4ccccc4)c4c(O)c(C=O)c(O)c(C=O)c4O3)C1C2 (single isomer, unassigned; (+))","PFKM (Homo sapiens, UniProt P08237)","enzyme activity, inhibitor",HEK293T cell lysate,apparent,14.4
Cc1ccc(C(=O)N2CCN(c3ccc(F)cc3)CC2)cc1,SEC14,"enzyme activity, inhibitor, radiometric",,,22
Cc1ccnc(Oc2ccc(-c3c(-c4ccc(NC(=O)C(C)C)cc4)n(C)c4ncnc(N)c34)cc2F)n1,"FGFR2 (Homo sapiens, UniProt P21802)",Caliper mobility shift,,"30 min preincubation, together with: 100 µM ATP",2.17
CC(=O)N[C@H]1[C@@H](OC(=O)NCCCOCCOCCOCCCNC(=O)O[C@H]2O[C@H](CNC(=O)OCCOCCOCCOCCOCCOCCOCCOCCOCCOCCOCCOCCOC(=O)NC[C@H]3O[C@H](OC(=O)NCCCOCCOCCOCCCNC(=O)O[C@H]4O[C@H](CO)[C@@H](O)[C@H](O)[C@H]4NC(C)=O)[C@H](NC(C)=O)[C@@H](O)[C@@H]3O)[C@@H](O)[C@H](O)[C@H]2NC(C)=O)O[C@H](CO)[C@@H](O)[C@@H]1O,wheat germ agglutinin (Triticum vulgaris),"binding to immobilised GlcNAc, inhibitor, enzyme-linked lectin",,together with: HRP-labelled WGA,0.0074

# A few entries again:
SMILES,target,test,test system,setting,IC50 [µM]
N#Cc1c(Nc2c(Cl)ccc3ncccc23)s[nH]c1=O,"SARM1 (Homo sapiens, UniProt Q6SZW1, C635A)","enzyme activity, inhibitor",,,17
CC(C)(C)c1cc(=O)n2ncc(-c3ccc(F)cc3)c2[nH]1,"CHD1L (Homo sapiens, UniProt Q86WJ1)","ATPase activity, inhibitor",,"1 h, 37 °C, together with: ATP 10 µM",4.57
